Assay results gathered from unrelated publications.
Each line is one published result; not all experiments were run side by side. Several values in a cell are separate wells, animals, samples, runs or records. Numbers after ± are the reported error.

| Compound | tested on | test | test system | setting | how to read | measurement | value |
| --- | --- | --- | --- | --- | --- | --- | --- |
| Cc1ccc(CNC(=O)Cn2cc(CSc3nc4ccccc4[nH]3)nn2)cc1 | MDA-MB-231 | MTT |  | 125 ppm |  | viability | 8.34% |
| O=C(NOCC1CC1)c1ccc(F)c(F)c1Nc1ccc(I)cc1Cl | iCell Cardiomyocytes (hiPSC-derived) | xCELLigence Cardio impedance |  | concentration not given, 2 h | baseline: control | beat amplitude | 97.8% |
| C[C@@H]1CN(C(=O)c2ccc(NC(=O)c3cc(O[C@H](C)c4c(Cl)ccc(F)c4Cl)c(N)nn3)cc2)C[C@H](C)N1 | Ba/F3 EML4-ALK variant 1 S1206F | cell viability |  |  |  | Emax | 100% |
| OCc1nc2ccc(NCc3ccc(F)cc3)cc2[nH]1 | sample A patient iPSC NPCs | cell protection, MTS |  | up to 100 µM, 24 h |  | Emax | 13% |
| Cc1c(C)c2c(c(C)c1O)CCC(C)(COc1ccc(CC3SC(=O)NC3=O)cc1)O2 (stereo not shown) | THLE-2 |  |  | 40 µM, 96 h, 2D culture |  | caspase-3/7 activity | ~50% |
| CC(C)NCC(O)c1ccc(O)c(O)c1 (stereo not shown) | mouse ventricular cardiomyocytes |  |  | dose not given, 0.411 s |  | sarcomere length | 1.78 µm |
| CCCS(=O)(=O)Nc1ccc(F)c(C(=O)c2c[nH]c3ncc(Cl)cc23)c1F | iCell Cardiomyocytes (hiPSC-derived) | xCELLigence Cardio impedance |  | concentration not given, 2 h | baseline: control | beat amplitude | 103% |
| Cn1c(Nc2nc3ccc(C(F)(F)F)cc3s2)nc2cc(C(=O)NCCOCCO)ccc21 | SH-SY5Y | RNA-seq, refers to: AOPEP mRNA |  | 5 µM, 5 h | baseline: untreated cells | fold change | 1.75 |
| CN1CCN(S(=O)(=O)c2ccc(-c3cnc(N)c(C(=O)Nc4cccnc4)n3)cc2)CC1 | ARPE-19 HiBiT fibulin-3 | HiBiT luminescence |  | 1.66 µM |  | fibulin-3 level | -37.9% |
| C=C(c1ccc(O)c(Oc2cc3c(cc2OC)CCN(C)[C@@H]3Cc2ccc(OC)cc2)c1)[C@H]1c2cc(O)c(OC)cc2CCN1C | 3T3-L1 | adipocyte lipid accumulation, Nile Red staining |  | 1 µM |  | inhibition | 13.4 ± 0.5% |
| COc1cccc2c1C(=O)c1c(O)c3c(c(O)c1C2=O)C[C@@](O)(C(=O)CO)C[C@@H]3O[C@H]1C[C@H](N)[C@H](O)[C@H](C)O1 | MDA-MB-231 and Vero | MTT |  |  | baseline: CC50 Vero over EC50 MDA-MB-231 | selectivity index | 0.9 |
| c1ccc2[nH]ccc2c1 | HCT-8 | RNA-seq, refers to: ISL2 |  | concentration not given |  | mRNA level, LS mean | 12 counts per million |
| CCC(O)C(=O)O (stereo not shown) |  | binding, equilibrium dialysis LC-MS |  | 5 µM, thermostabilized A2AR-BRIL construct | baseline: no-protein control, direction not given | z-scored log2 fold change | 0.783 |
| Cc1ccc(F)c(NC(=O)Nc2ccc(-c3cccc4[nH]nc(N)c34)cc2)c1 | NLRP3 inflammasome (mouse) |  | mouse BMDM | 10 µM |  | inhibition | 91.6% |
| CCOc1cc2ncc(C#N)c(Nc3ccc(OCc4ccccn4)c(Cl)c3)c2cc1NC(=O)/C=C/CN(C)C | iCell Cardiomyocytes (hiPSC-derived) | xCELLigence Cardio impedance |  | concentration not given, 2 h | baseline: control | beat rate | 76.8% |
| CCn1c(-c2nonc2N)nc2cncc(CNC3CCNCC3)c21 | SK-OV-3 | ATP |  | 1 µM, 4 days, 3D U-bottom low-attachment | baseline: untreated | relative cell number | 115% |
| COc1cc(N2CCC(N3CCN(C)CC3)CC2)ccc1Nc1ncc(Cl)c(Nc2ccccc2P(C)(C)=O)n1 | KARPAS-299 (NPM1-ALK) | cell viability |  |  |  | Emax | 76.2% |
| Cn1cc(-c2ccc(F)c(C(F)(F)F)c2)nc1C1CCN(c2ncnc3[nH]ncc23)CC1 | SK-OV-3 | ATP | 2D monolayer culture | 0.1 µM, 4 days | baseline: untreated | relative cell number | 103% |
| Cc1ccc(-n2nc(C(C)(C)C)cc2NC(=O)Nc2ccc(OCCN3CCOCC3)c3ccccc23)cc1 | iCell Cardiomyocytes (hiPSC-derived) | xCELLigence Cardio impedance |  | concentration not given, 2 h | baseline: control | beat amplitude | 94.1% |
| C=CC(=O)N1CCC([C@@H]2CCNc3c(C(N)=O)c(-c4ccc(Oc5ccccc5)cc4)nn32)CC1 | TMD8 RAC2 knockout | calcium flux, FLIPR |  | concentration not given, 1 h preincubation |  | inhibition | 101% |
| CC(C)Nc1ccnc(Nc2ccccc2-c2ccccc2)n1 | MOLM-13 (FLT3-ITD/D835Y) | cell viability, MTT |  | 72 h |  | EC50 | 4.26 µM |
| COc1ccc2c(Cc3cccc(-c4ccccc4)c3)ncnc2c1 | A549 | mitochondrial oxygen consumption, Seahorse XF96 |  | 10 µM |  | inhibition | 32% |
| O=C(O)c1ccc(-c2c[nH]c3ncc(-c4ccccc4)cc23)cc1C1CCCC1 | SK-OV-3 | ATP |  | 1 µM, 4 days, 3D U-bottom low-attachment | baseline: untreated | relative cell number | 110% |
| CCn1cc(-c2cc(Cn3ccoc3=N)cc3c2CCN([C@@H](C)c2cc(OC)ccn2)C3=O)c(C(F)(F)F)n1 | Detroit 562 | cell growth |  | 120 h |  | EC50 | > 30 µM |
| Nc1ncnc2c1ncn2[C@H]1C[C@H](O)[C@@H](COP(=O)(O)OP(=O)(O)O)O1 |  | binding, equilibrium dialysis LC-MS |  | 5 µM, thermostabilized A2AR-BRIL construct | baseline: no-protein control, direction not given | z-scored log2 fold change | -0.0812 |
| C=CC(=O)N1CCC[C@@H](n2nc(-c3ccc(Oc4ccccc4)cc3)c3c(N)ncnc32)C1 | TMD8 RAC2 knockout | calcium flux, FLIPR |  | concentration not given, 2 h preincubation |  | inhibition | 98.6% |
| Cc1cccc(-c2[nH]c(CNc3ccccc3F)nc2-c2ccc3ncnn3c2)n1 | MM1.S | XTT |  | 1.2 µM |  | viability | 49% and 53% and 51% |
| CCn1cc(-c2cc(Cn3ccnc3)cc3c2CCN([C@H](c2cc(OC)ccn2)C2CC2)C3=O)c(C(F)(F)F)n1 | HCC15 | cell growth, inhibitor |  | 120 h |  | EC50 | > 30 µM |

| Compound | tested on | test | test system | setting | how to read | measurement | value |
| --- | --- | --- | --- | --- | --- | --- | --- |
| CC(C)(C)c1cnc(CSc2cnc(NC(=O)C3CCN(C(=O)CCCCCCCN4Cc5cc6c(cc5C4)C(=O)N(C4CCC(=O)NC4=O)C6=O)CC3)s2)o1 (stereo not shown) | TC-71 | RNA-seq |  | 10 nM, 8 h |  | number of upregulated genes | 777 genes |
| C=CC(=O)Nc1cccc(Oc2nc(Nc3ccc(N4CCN(C)CC4)cc3)nc3ccoc23)c1 | TMD8 RAC2 knockout | calcium flux, FLIPR |  | concentration not given, 2 h preincubation |  | inhibition | 70.8% |
| COC(=O)Nc1nc2ccc(C(=O)c3cccs3)cc2[nH]1 | HepaRG | ROS-Glo |  |  |  | maximal ROS response | -106 ± 13.3% |
| c1ccc(-c2cccc(Cc3nccc4ccccc34)c2)cc1 | A549 | mitochondrial oxygen consumption, Seahorse XF96 |  | 10 µM |  | inhibition | 0% |
| OC1CCN(c2ccc(/C=N/NC(=S)NCCc3ccccc3)cc2)CC1 | BEAS-2B and A549 | MTT |  |  | baseline: IC50 BEAS-2B over IC50 A549 | selectivity ratio | 11.3 |
| O=C1N(Cc2ccccc2Cl)c2ccccc2C12NN=C(c1ccccc1)S2 (stereo not shown) | TNBC cells | MTT |  | 10 µM, 24 h |  | viability loss | 70 to 90% |
| CCCN1CCN(c2ccc3nc(-c4ccc5nc(-c6cc(OC)ccc6OC)[nH]c5c4)[nH]c3c2)CC1 | NCI/ADR-RES | cell growth, NCI-60 SRB |  | 10 µM, 48 h |  | growth percent | 111% |
| COC(=O)c1cc(C(C)=NNc2nc(-c3ccc4c(c3)OCCCO4)cs2)ccc1O | T47D | flow cytometry |  | 40 µM, 72 h |  | cells in S phase | 66.3 ± 1.9% |
| O=C(NOC[C@H](O)CO)c1ccc(F)c(F)c1Nc1ccc(I)cc1F | A549 |  |  | 0.1562 µM, 72 h |  | viability | 59.3% |
| CCCN1CCN(c2ccc3[nH]c(-c4ccc5[nH]c(-c6cc(OC)c(OC)c(OC)c6)nc5c4)nc3c2)CC1 | NCI/ADR-RES | cell growth, NCI-60 SRB |  | 10 µM, 48 h |  | growth percent | 100% |
| Clc1ccc(C2(c3ccc(-c4cn[nH]c4)cc3)CCNCC2)cc1 | SK-OV-3 | ATP |  | 1 µM, 4 days, 3D U-bottom low-attachment | baseline: untreated | relative cell number | 134% |
| Cc1ccc2nc(NCCN)c3ncc(C)n3c2c1 | iCell Cardiomyocytes (hiPSC-derived) | xCELLigence Cardio impedance |  | concentration not given, 2 h | baseline: control | beat amplitude | 102% |
| Cn1cc(Nc2nccc(-c3ccc4c(c3)CN(C3COC3)CC[C@H]4NC(=O)c3cn(C(C)(C)C)nn3)n2)cn1 | human B cells |  |  | 100 nM, 64 h, stimulation-downregulated genes, together with: CD40L, anti-IgM, IL-4 |  | number of downregulated genes | 18 |
| CC#CC(=O)N1CCC[C@H]1c1nc(-c2ccc(C(=O)Nc3ccccn3)cc2)c2c(N)nccn12 | Ramos | calcium flux, FLIPR |  | 2 h preincubation |  | IC50 | 0.01 µM |
| Cn1cc(-c2ccc3nnc(Sc4ccc5ncccc5c4)n3n2)cn1 | iCell Cardiomyocytes (hiPSC-derived) | cellular impedance |  | concentration not given, 24 h | baseline: control | cell index | 99.5% |
| O=c1[nH]nc(OCCCc2ccc(Cl)cc2)c(NCc2cccnc2)c1Br | HEK-293T | RNA-seq GSEA, refers to: HALLMARK_P53_PATHWAY |  | concentration not given | direction not given | normalized enrichment score | 1.49 |
| COc1cnc2cccc(N3CCc4c(cc(Cn5ccnc5C)cc4-c4cn(C)nc4C(F)(F)F)C3=O)c2c1 | RT-4 | cell growth, inhibitor |  | 120 h |  | EC50 | 4.79 µM |
| C[C@H]1Oc2cc(cnc2N)-c2c(nn(C)c2C#N)CN(C)C(=O)c2ccc(F)cc21 | KARPAS-299 (NPM1-ALK) | cell viability |  |  |  | Emax | 76.9% |
| O=C(/C=C/C=C/C=C/C1CCCCC1)NC1=C[C@@](O)(/C=C/C=C/C=C/C(=O)NC2=C(O)CCC2=O)[C@@H]2O[C@@H]2C1=O | cal29 | cell growth, inhibitor, CellTiter-Glo luminescence |  | 78 h | baseline: day 0 cell count | GI50 | 13.1 µM |
| CSc1cc(Oc2ccnc3[nH]c(=O)cnc23)ccc1NC(=O)Nc1cc(C(C)(C)C)nn1-c1ccccc1 | patient-derived cell lines | reverse phase protein array |  | 1 µM, 4 h, mean of three patients | baseline: DMSO | phospho-Ser73 c-Jun to total ratio | 0.79 |
| COc1cc(/C=C/C(=O)N2CCC=CC2=O)cc(OC)c1OC | MDA-MB-468 | qRT-PCR, refers to: IDH2 |  | 30 µM, 6 h | baseline: time zero | mRNA level | 78.2 ± 9.9% |
| CS(=O)(=O)CCNCc1ccc(-c2ccc3ncnc(Nc4ccc(OCc5cccc(F)c5)c(Cl)c4)c3c2)o1 | iCell Cardiomyocytes (hiPSC-derived) | CellTiter-Glo |  | concentration not given, 24 h | baseline: control | ATP level | 102% |
| CCCCc1nc(Cl)c(CO)n1Cc1ccc(-c2ccccc2-c2nn[nH]n2)cc1 | human PBMC | RNA-seq, refers to: GPR31 mRNA |  | 10 µg/mL, 24 h | baseline: untreated control | log2 fold change | 2.94 |
| Cc1ccc(NC(=O)c2ccc(CN3CCN(C)CC3)cc2)cc1Nc1nccc(-c2cccnc2)n1 | iCell Cardiomyocytes (hiPSC-derived) | xCELLigence Cardio impedance |  | concentration not given, 2 h | baseline: control | beat rate | 101% |
| Cn1cc(-c2ccc(-c3cncc(Cl)c3N3CCC4(CCNC4=O)CC3)cc2)cn1 | COLO 205 | gene expression, microarray, refers to: SLC2A4 (GLUT4) mRNA |  | concentration not given, 2 h | baseline: untreated cells | log2 fold change | -3.11 |
| Cc1nc(N(Cc2ccccc2)c2ccc3c(c2)/C(=C/c2ccccc2)C(=O)N3Cc2ccccc2)c2ccccc2n1 (mixture of isomers) | A549 | Transwell |  | 1 µM, 24 h | baseline: untreated | migration inhibition | 66.4% |
| Cc1cc(Nc2ncc(Cl)c(Nc3ccccc3S(=O)(=O)C(C)C)n2)c(OC(C)C)cc1C1CCNCC1 | CLB-GE | phosphoproteomics LC-MS/MS, refers to: ARHGAP39 phosphorylation |  | 200 nM, 60 min | baseline: untreated | log2 fold change | -1.73 |
